Experimental data collected from several papers.
Each line is one published result; not all experiments were run side by side. ± gives the spread as reported.
CPL: CPL (Toxoplasma gondii, UniProt Q6DMN0)
UniProt P07237, sequence (whole entry, looked up): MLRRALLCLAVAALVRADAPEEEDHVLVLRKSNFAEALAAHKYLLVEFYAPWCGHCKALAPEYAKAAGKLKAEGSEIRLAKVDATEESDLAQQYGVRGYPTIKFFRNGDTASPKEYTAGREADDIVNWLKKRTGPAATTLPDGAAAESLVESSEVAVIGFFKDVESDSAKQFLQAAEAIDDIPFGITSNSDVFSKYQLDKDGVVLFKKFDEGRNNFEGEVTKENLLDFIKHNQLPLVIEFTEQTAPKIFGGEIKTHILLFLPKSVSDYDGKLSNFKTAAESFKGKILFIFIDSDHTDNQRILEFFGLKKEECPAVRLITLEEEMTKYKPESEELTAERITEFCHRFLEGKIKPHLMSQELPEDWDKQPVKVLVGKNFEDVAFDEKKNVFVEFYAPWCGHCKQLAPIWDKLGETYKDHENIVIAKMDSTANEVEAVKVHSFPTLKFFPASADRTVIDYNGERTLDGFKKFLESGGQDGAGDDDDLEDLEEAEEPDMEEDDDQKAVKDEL
UniProt P05979, sequence (whole entry, looked up): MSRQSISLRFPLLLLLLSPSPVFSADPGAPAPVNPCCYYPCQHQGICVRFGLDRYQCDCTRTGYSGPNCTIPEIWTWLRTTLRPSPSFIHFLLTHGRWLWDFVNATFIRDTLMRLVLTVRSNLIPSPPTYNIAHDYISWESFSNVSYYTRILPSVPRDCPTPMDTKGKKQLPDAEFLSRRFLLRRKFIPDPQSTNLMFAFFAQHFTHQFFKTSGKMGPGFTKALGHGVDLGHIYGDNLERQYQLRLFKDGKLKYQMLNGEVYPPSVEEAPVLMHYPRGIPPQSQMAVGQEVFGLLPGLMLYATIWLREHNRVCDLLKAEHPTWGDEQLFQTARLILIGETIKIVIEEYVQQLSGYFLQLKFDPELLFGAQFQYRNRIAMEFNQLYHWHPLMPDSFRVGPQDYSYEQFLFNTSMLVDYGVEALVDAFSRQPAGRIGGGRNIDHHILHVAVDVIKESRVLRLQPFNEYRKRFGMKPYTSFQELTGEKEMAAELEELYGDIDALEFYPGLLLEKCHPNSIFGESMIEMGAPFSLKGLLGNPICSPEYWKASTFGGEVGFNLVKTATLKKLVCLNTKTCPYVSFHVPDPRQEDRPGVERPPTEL
UniProt Q68T42, sequence (whole entry, looked up): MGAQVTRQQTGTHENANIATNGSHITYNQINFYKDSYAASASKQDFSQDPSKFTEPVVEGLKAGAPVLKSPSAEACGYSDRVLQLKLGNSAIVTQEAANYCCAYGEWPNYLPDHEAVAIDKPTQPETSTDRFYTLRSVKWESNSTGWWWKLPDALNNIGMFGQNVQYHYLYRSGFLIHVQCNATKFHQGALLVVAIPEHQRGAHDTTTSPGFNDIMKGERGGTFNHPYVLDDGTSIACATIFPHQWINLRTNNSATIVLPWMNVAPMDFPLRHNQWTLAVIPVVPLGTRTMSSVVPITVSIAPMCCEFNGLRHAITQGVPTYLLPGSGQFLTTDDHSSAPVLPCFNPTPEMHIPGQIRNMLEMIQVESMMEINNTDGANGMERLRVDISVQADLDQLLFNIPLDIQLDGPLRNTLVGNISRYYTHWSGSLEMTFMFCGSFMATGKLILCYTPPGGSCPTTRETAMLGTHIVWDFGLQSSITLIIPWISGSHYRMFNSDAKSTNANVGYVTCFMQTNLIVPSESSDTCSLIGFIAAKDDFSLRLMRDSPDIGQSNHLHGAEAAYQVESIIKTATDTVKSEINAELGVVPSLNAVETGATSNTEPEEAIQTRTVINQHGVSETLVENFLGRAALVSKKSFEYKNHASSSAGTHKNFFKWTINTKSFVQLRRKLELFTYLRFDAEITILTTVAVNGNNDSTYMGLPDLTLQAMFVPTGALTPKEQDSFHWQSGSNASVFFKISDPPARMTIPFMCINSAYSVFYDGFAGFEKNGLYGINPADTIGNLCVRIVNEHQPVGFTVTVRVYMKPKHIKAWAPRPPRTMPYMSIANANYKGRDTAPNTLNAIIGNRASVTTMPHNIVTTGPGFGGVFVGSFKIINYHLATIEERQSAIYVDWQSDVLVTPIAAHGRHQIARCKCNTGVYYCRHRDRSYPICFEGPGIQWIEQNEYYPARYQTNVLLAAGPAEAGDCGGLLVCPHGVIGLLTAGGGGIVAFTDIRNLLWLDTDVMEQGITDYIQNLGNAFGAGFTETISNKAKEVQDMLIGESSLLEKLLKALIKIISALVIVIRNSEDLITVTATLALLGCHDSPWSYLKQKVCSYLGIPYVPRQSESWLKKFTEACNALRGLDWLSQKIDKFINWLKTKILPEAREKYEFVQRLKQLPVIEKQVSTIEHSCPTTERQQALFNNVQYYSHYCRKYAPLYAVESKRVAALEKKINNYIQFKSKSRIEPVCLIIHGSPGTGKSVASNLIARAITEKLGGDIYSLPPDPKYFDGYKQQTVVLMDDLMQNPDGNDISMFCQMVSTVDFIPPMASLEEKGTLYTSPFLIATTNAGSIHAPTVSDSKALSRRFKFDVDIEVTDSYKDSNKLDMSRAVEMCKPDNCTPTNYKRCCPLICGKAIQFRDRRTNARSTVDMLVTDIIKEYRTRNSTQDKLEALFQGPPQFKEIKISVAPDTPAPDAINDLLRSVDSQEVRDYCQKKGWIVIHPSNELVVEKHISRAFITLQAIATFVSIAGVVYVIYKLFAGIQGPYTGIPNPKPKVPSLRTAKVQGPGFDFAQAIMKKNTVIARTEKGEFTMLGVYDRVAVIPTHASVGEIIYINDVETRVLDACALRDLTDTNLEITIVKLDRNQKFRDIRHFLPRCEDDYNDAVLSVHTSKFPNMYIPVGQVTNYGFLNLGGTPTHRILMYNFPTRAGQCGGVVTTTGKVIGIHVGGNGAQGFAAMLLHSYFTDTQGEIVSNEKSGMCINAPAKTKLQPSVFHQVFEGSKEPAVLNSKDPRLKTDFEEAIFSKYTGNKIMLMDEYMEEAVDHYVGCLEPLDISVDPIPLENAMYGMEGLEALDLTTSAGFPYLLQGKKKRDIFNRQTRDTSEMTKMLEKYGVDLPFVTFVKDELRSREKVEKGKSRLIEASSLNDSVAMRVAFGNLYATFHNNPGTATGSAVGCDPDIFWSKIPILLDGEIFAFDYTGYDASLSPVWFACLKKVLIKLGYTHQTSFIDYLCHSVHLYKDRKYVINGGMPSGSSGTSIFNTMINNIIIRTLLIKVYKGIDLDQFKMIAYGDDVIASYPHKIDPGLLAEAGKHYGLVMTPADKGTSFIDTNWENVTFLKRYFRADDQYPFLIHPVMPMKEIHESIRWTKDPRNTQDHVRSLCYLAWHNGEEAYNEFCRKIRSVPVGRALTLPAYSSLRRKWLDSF
UniProt O15393, sequence (whole entry, looked up): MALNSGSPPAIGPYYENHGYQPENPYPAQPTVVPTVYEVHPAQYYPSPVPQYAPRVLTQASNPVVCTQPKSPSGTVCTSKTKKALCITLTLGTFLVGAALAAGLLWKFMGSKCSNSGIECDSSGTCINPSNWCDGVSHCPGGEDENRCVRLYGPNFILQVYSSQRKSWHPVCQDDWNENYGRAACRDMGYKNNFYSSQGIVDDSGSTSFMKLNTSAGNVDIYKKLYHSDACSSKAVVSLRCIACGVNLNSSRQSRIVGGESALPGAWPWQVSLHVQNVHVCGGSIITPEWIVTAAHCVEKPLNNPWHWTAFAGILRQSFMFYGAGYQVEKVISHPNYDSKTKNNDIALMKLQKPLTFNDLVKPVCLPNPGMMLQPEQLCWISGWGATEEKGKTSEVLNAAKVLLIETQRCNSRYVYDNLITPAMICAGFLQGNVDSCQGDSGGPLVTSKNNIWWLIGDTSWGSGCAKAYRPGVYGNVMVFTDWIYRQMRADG
UniProt P78325, sequence (whole entry, looked up): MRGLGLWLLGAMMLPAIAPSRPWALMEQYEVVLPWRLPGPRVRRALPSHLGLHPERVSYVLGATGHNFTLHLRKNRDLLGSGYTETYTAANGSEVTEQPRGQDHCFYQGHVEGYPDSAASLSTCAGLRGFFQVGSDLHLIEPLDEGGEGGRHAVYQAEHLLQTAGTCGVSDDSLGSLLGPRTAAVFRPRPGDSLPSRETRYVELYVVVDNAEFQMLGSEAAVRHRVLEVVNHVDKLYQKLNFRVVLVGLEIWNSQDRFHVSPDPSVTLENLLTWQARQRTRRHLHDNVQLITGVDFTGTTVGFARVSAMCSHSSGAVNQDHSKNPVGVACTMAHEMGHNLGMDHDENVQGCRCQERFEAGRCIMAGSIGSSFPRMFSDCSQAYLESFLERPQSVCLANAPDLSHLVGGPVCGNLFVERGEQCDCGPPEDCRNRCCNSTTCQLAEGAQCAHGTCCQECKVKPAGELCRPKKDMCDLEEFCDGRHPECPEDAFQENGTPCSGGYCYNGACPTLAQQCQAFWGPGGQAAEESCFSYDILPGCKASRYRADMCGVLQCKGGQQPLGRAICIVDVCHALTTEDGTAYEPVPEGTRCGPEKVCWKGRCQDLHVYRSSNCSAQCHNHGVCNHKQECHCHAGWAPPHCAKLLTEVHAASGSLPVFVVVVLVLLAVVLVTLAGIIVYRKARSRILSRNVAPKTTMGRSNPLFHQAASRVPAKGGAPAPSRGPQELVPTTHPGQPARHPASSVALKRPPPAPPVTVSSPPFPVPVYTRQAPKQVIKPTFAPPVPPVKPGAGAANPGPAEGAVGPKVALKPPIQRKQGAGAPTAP
UniProt P0ABQ4, sequence (whole entry, looked up): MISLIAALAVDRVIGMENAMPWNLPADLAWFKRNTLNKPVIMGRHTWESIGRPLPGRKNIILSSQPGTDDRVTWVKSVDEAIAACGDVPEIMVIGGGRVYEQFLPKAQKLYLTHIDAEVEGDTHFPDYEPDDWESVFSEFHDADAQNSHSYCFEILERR
UniProt P52700, sequence (whole entry, looked up): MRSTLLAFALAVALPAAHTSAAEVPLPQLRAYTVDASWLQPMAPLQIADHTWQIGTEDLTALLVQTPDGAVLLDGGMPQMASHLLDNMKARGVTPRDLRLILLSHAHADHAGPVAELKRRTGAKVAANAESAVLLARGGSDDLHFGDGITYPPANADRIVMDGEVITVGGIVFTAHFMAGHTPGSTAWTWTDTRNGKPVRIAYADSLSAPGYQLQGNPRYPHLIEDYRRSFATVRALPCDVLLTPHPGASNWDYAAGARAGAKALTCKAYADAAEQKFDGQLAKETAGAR

CC(=O)NC1C(OC2OC(CC(O)C3OC(n4ccc(=O)[nH]c4=O)C(O)C3O)C(O)C(O)C2NC(=O)C=CCCCCCCCCCC(C)C)OC(CO)C(O)C1O (centres unmarked)  IC50 (UDP-N-acetylglucosamine--dolichyl-phosphate N-acetylglucosaminephosphotransferase (Homo sapiens, UniProt Q9H3H5); enzyme activity, inhibitor): > 50 µM
COc1cccc(CN(CCC(C)C)c2nc(C#N)nc(N3CCOCC3)n2)c1  IC50 (CPL; enzyme activity, inhibitor, Z-L-R-AMC hydrolysis fluorescence): 0.047 µM
C/C(=N\OCCCN1CCCCC1)c1ccc(C(F)(F)F)cc1  IC50 (CHRM2 (Homo sapiens, UniProt P08172); inositol phosphate, antagonist): 1.06 µM
CCCCCOC(=O)c1ccc(Nc2ccccc2C(=O)O)cc1  IC50 (Androgen receptor (AR, Homo sapiens, UniProt P10275); reporter gene, antagonist, MMTV-Luc reporter; MDA-kb2; 20 h, added: 0.2 nM DHT (EC50)): 0.7 ± 0.3 µM
CC(=O)N[C@@H](CCCNC(=N)N)C(=O)N[C@@H](Cc1ccc(O)cc1)C(=O)N[C@@H](CCCNC(=N)NC(=O)NCCCCN)C(=O)N[C@H](CC(C)C)C(=O)N[C@@H](CCCNC(=N)N)C(=O)N[C@@H](Cc1ccc(O)cc1)C(N)=O  IC50 (NPY4R (Homo sapiens, UniProt P50391); calcium signal, antagonist): 6 µM
O=C(CCCCCCC(=O)Nc1ccccc1N=Nc1ccccc1)NO  IC50 (HDAC8 (Homo sapiens, UniProt Q9BY41); enzyme activity, inhibitor; cis isomer, irradiated): 0.32 ± 0.101 µM
N#Cc1cn([C@@H]2O[C@H](CSCC[C@H](N)C(=O)O)[C@@H](O)[C@H]2O)c2ncnc(N)c12  IC50 (PRMT3 (Homo sapiens, UniProt O60678); enzyme activity, inhibitor, radiometric): 2 µM
N=C(N)NCCC[C@@H](NC(=O)[C@@H](CCCNC(=N)N)NC(=O)[C@@H](CCCNC(=N)N)NC(=O)[C@@H](CCCNC(=N)N)NC(=O)[C@@H](CCCNC(=N)N)NC(=O)[C@@H](CCCNC(=N)N)NC(=O)CCCCCNC1CCN(c2ncnc3[nH]cnc23)CC1)C(N)=O  IC50 (cGMP-dependent protein kinase 1, isoform alpha (PRKG1, Homo sapiens, UniProt Q13976)): 0.0339 µM
Cc1[nH]c2ccccc2c1C(c1cccc(Cl)c1)C(C#N)C#N (centres unmarked)  IC50 (Cocaine esterase (CES2, Homo sapiens, UniProt O00748); enzyme activity, inhibitor; human liver microsomes; pH 7.4, 37 °C, added: fluorescein diacetate): 2.64 ± 0.35 µM
COC(=O)C1CN1S(=O)(=O)c1ccc(C(F)(F)F)cc1 (centres unmarked)  IC50 (P4HB (Homo sapiens, UniProt P07237); enzyme activity, inhibitor, absorbance; pH 7.6): 0.54 µM
CC(N)CCc1ccccc1Cl (racemic)  IC50 (DRD2 (Homo sapiens, UniProt P14416)): > 10 µM
COC(=O)c1ccccc1CN(CCC(C)C)c1nc(C#N)nc(N2CCOCC2)n1  IC50 (CPL; enzyme activity, inhibitor, Z-L-R-AMC hydrolysis fluorescence): 0.123 µM
COc1cccc(/C=C/C(=O)c2cccc(C)c2)c1OC  IC50 (PTGS1 (Ovis aries, UniProt P05979); enzyme activity, inhibitor, ELISA): 164 µM
CC(C)C[C@@H]1NC(=O)[C@H](Cc2ccc(O)cc2)NC(=O)[C@H](CC(N)=O)NC(=O)[C@H](CO)NC(=O)[C@@H](NC(=O)[C@@H]2CCCN2C(=O)[C@H](CC(N)=O)NC(=O)[C@H](Cc2ccc(O)cc2)NC(=O)[C@@H](N)CCCCN)CSC1=O  IC50 (Accessory gene regulator protein C (Staphylococcus epidermidis, UniProt O86861)): 0.00284 µM
CN[C@@H]1[C@H](O)[C@H](NC)[C@H]2O[C@]3(O)[C@H](O[C@@H]2[C@H]1O)O[C@H](C)C[C@@]3(O)CNCc1ccc(F)cc1  IC50 (Small ribosomal subunit protein uS5, 70S ribosome (rpsE, Mycolicibacterium smegmatis, UniProt A0QSG6); translation, inhibitor, in vitro translation, luciferase; Mycobacterium smegmatis ribosomes): 0.74 µg/mL
NC(=O)CC[C@H](N)C(=O)NCC(=O)N[C@@H](CC(=O)O)C(=O)N[C@@H](Cc1ccccc1)C(=O)O  IC50 (Integrin alpha-IIb/beta-3, ADP-activated (Homo sapiens, UniProt P05106+P08514); fibrinogen binding, inhibitor; human platelets): > 1000 µM
CCC[C@H](NC(=O)[C@H](CCCNC(=N)N)NC(=O)[C@H](CCSC)NC(=O)[C@H](C)N)C(=O)N[C@@H](CO)C(=O)N[C@@H](CCCNC(=N)N)C(=O)N[C@H](C(=O)N[C@H](C(=O)N[C@@H](CCCNC(=N)N)C(=O)N[C@H](CC(=O)O)C(=O)N[C@@H](Cc1ccccc1)C(=O)N[C@@H](CC(C)C)C(=O)N[C@@H](Cc1ccccc1)C(=O)N[C@@H](CCC(N)=O)C(=O)N[C@@H](CCCNC(=N)N)C(=O)N[C@@H](CCCCN)C(=O)N[C@@H](CCCCN)C(=O)O)[C@@H](C)CC)[C@@H](C)CC  IC50 (histidine kinase ComD (Streptococcus pneumoniae serotype 4, UniProt A0A0H2US84); Streptococcus pneumoniae): > 1 µM
COC(=O)C1CN1S(=O)(=O)c1ccc(C(C)(C)C)cc1 (centres unmarked)  IC50 (Protein disulfide-isomerase, a domain (P4HB, Homo sapiens, UniProt P07237); insulin reduction, inhibitor, insulin turbidity): 1.1 ± 0.05 µM
CC(C)C[C@@H]1NC(=O)[C@H](C(C)C)NC(=O)[C@H](C)NC(=O)[C@H](Cc2ccc(O)cc2)NC(=O)[C@H](CCC(N)=O)NC(=O)[C@H](CC(C)C)NC(=O)[C@@H](Cc2ccc(O)cc2)NC(=O)CSC[C@@H](C(N)=O)NC(=O)[C@H](CCC(=O)O)NC(=O)[C@H](CCCNC(=N)N)NC(=O)[C@H](CCCNC(=N)N)NC(=O)[C@H](CCCCN)NC(=O)[C@H](Cc2c[nH]cn2)NC(=O)[C@H](CCCNC(=N)N)NC1=O  IC50 (TMPRSS2 (Homo sapiens, UniProt O15393); enzyme activity, inhibitor): > 10 µM
CC(=O)CCC1C(=O)NC(C(C)C)C(=O)NC(Cc2cccc(O)c2)C(=O)N2CCCC(N2)C(=O)OC(C(C)=CC=CC(=O)N2CCCCO2)CC=CC=CC(O)C(C)C1O (centres unmarked)  IC50 (Peptidyl-prolyl cis-trans isomerase A, with HCV NS5A (PPIA, Homo sapiens, UniProt P62937); inhibitor): 0.36 ± 0.03 µM
O=C(N[C@@H](CC1CCCCC1)C(=O)N[C@@H](C[C@H]1CCNC1=O)C(=O)C(=O)NC1CC1)OCc1ccccc1  IC50 (Genome polyprotein, 3C protease (Human enterovirus D68, UniProt Q68T42); 3C protease activity, inhibitor, FRET): 0.021 ± 0.01 µM
CN[C@H](CC(C)C)C(=O)N[C@H]1C(=O)N[C@@H](CC(N)=O)C(=O)N[C@H]2C(=O)N[C@H]3C(=O)N[C@H](C(=O)N[C@H](C(=O)O)c4cc(O)cc(O)c4-c4cc3ccc4O)[C@H](O)c3ccc(c(Cl)c3)Oc3cc2cc(c3O[C@@H]2O[C@H](CO)[C@@H](O)[C@H](O)[C@H]2O[C@H]2C[C@](C)(NCc3ccc(C(=O)OCCCCCCN(Cc4ccccn4)Cc4ccccn4)cc3)[C@H](O)[C@H](C)O2)Oc2ccc(cc2Cl)[C@H]1O  IC50 (Beta-lactamase L1 (Stenotrophomonas maltophilia, UniProt P52700); enzyme activity, inhibitor, fluorescence): 10.2 µM
CC(C)C[C@@H]1NC(=O)[C@H](Cc2c[nH]c3ccccc23)NC(=O)[C@H](Cc2ccc(O)cc2)NC(=O)[C@H](CCCNC(=N)N)NC(=O)[C@@H](NC(=O)[C@@H](N)CCC(=O)O)CSSC[C@@H]2NC(=O)[C@@H]3CSSC[C@@H](C(=O)N[C@H](C(=O)N[C@@H](Cc4c[nH]c5ccccc45)C(=O)N[C@@H](CC(=O)O)C(=O)NCC(=O)N[C@H](C(=O)N[C@@H](Cc4ccccc4)C(=O)N[C@@H](CO)C(=O)O)[C@@H](C)O)C(C)C)NC(=O)[C@H](Cc4c[nH]c5ccccc45)NC(=O)CNC(=O)[C@H](Cc4c[nH]cn4)NC(=O)[C@H](CCCNC(=N)N)NC(=O)[C@H](CCCNC(=N)N)NC(=O)[C@H](CO)NC(=O)[C@H](CSSC[C@H](NC(=O)CNC(=O)CNC1=O)C(=O)N[C@@H](CO)C(=O)N[C@@H](C)C(=O)NCC(=O)N[C@@H](CCC(N)=O)C(=O)N[C@@H]([C@@H](C)O)C(=O)N3)NC(=O)[C@H](C(C)C)NC(=O)[C@H](CC(C)C)NC(=O)[C@H](Cc1c[nH]cn1)NC(=O)[C@H](CCCCN)NC2=O  IC50 (TRPA1 (Homo sapiens, UniProt O75762)): 0.389 ± 0.077 µM
O=C(CCCCCCC(=O)Nc1cccc(N=Nc2ccccc2)c1)NO  IC50 (HDAC6 (Homo sapiens, UniProt Q9UBN7); enzyme activity, inhibitor; trans isomer): 0.013 ± 0.003 µM
CC(C)C[C@@H]1NC(=O)[C@H](CCCNC(=N)N)NC(=O)[C@H](C)NC(=O)[C@H](CC(=O)O)NC(=O)[C@H](CCCCN)NC(=O)[C@@H](CO)NC1=O  IC50 (Disintegrin and metalloproteinase domain-containing protein 8 (Homo sapiens, UniProt P78325); enzyme activity, inhibitor, fluorescence): 0.165 µM
O=C(O)CC(O)C(=O)O (centres unmarked)  IC50 (PPCA (Flaveria trinervia, UniProt P30694, G884R); enzyme activity, inhibitor; added: PEP at 2 × Km): 2800 µM
O=C1c2ccccc2[Se](=O)N1c1ccccc1 (centres unmarked)  IC50 (HDAC3 (Homo sapiens, UniProt O15379); enzyme activity, inhibitor, fluorescence): 4.18 µM
C=CC1CN2CCC1CC2C(O)c1c(-c2ccc(N=Nc3ccccc3)cc2)cnc2ccc(OC)cc12 (centres unmarked)  IC50 (SCN5A (Homo sapiens, UniProt Q14524, F1760A); whole-cell patch clamp; HEK293T expressing mutant; pH 7.3, in darkness): > 100 µM
CC(C)C[C@@H]1NC(=O)[C@H](Cc2ccccc2)NC(=O)[C@@H](N)CSSC[C@@H](C(N)=O)NC(=O)[C@H](C)NC(=O)[C@H](CC(N)=O)NC(=O)[C@H](CO)NC(=O)[C@H](C(C)C)NC(=O)[C@H](CC(N)=O)NC1=O  IC50 (WD repeat-containing protein 5, WBM site (WDR5, Homo sapiens, UniProt P61964); binding, inhibitor): > 100 µM
C=C(NC(=O)C(=C)NC(=O)c1csc(C2=NC3c4csc(n4)C4NC(=O)c5csc(n5)C(C(C)(O)C(C)O)NC(=O)C5CSC(=N5)C(=CC)NC(=O)C(C(C)O)NC(=O)c5csc(n5)C3(CC2)NC(=O)C(C)NC(=O)C(=C)NC(=O)C(C(C)CC)NC2C=Cc3c(C(C)O)cc(nc3C2O)C(=O)OC4C)n1)C(N)=O (centres unmarked)  IC50 (PSMB6 (Homo sapiens, UniProt P28072); caspase-like activity, inhibitor; purified human 20S proteasome; 37 °C, 15 min preincubation, added: Ac-Nle-Pro-Nle-Asp-AMC): 1.6 ± 0.3 µM
CN(C)CCCOc1ccc(C2Sc3ccccc3NC3=C2C(=O)c2ccccc23)cc1 (racemic)  IC50 (PFF0160c (Plasmodium falciparum, UniProt Q08210); enzyme activity, inhibitor, absorbance): > 20 µM
CCCCCCCCCC1N=C(N)N=C(N)N1c1ccc(Cl)cc1 (racemic)  IC50 (folA (Escherichia coli, UniProt P0ABQ4); enzyme activity, inhibitor): 5 µM

Repeated from above:
CC(N)CCc1ccccc1Cl (racemic)  IC50 (DRD2 (Homo sapiens, UniProt P14416)): > 10 µM
COC(=O)c1ccccc1CN(CCC(C)C)c1nc(C#N)nc(N2CCOCC2)n1  IC50 (CPL; enzyme activity, inhibitor, Z-L-R-AMC hydrolysis fluorescence): 0.123 µM
COc1cccc(/C=C/C(=O)c2cccc(C)c2)c1OC  IC50 (PTGS1 (Ovis aries, UniProt P05979); enzyme activity, inhibitor, ELISA): 164 µM
